Measured values pooled from the literature.
Numbered parts are unrelated; each lists some results of a single study.
Chain of UniProt P53667 (whole entry, looked up): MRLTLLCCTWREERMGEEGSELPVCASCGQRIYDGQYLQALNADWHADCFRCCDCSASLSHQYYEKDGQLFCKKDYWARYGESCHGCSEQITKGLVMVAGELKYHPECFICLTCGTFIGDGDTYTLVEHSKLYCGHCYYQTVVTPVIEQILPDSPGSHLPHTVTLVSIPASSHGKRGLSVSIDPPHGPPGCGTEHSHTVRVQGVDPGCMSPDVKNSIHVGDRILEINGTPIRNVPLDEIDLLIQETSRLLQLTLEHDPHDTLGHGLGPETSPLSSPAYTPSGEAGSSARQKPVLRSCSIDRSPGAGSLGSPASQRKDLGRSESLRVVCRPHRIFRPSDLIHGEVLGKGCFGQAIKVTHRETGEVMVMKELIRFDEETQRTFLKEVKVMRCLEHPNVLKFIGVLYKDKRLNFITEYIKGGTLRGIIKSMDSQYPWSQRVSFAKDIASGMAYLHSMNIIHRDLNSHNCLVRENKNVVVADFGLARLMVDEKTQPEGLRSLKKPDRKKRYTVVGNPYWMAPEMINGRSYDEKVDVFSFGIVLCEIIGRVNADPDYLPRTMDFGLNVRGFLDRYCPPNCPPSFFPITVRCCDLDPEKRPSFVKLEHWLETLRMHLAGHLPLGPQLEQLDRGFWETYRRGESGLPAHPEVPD
Chain of UniProt P11309 (whole entry, looked up): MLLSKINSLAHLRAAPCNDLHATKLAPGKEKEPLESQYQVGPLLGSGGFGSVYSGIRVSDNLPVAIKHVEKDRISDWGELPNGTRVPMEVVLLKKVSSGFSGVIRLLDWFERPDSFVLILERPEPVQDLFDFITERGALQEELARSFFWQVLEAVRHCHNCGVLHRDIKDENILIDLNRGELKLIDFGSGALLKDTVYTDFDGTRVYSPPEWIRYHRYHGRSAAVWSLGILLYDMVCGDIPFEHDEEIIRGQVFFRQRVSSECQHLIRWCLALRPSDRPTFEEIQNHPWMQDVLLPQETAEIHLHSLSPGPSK
Chain of UniProt O43683 (whole entry, looked up): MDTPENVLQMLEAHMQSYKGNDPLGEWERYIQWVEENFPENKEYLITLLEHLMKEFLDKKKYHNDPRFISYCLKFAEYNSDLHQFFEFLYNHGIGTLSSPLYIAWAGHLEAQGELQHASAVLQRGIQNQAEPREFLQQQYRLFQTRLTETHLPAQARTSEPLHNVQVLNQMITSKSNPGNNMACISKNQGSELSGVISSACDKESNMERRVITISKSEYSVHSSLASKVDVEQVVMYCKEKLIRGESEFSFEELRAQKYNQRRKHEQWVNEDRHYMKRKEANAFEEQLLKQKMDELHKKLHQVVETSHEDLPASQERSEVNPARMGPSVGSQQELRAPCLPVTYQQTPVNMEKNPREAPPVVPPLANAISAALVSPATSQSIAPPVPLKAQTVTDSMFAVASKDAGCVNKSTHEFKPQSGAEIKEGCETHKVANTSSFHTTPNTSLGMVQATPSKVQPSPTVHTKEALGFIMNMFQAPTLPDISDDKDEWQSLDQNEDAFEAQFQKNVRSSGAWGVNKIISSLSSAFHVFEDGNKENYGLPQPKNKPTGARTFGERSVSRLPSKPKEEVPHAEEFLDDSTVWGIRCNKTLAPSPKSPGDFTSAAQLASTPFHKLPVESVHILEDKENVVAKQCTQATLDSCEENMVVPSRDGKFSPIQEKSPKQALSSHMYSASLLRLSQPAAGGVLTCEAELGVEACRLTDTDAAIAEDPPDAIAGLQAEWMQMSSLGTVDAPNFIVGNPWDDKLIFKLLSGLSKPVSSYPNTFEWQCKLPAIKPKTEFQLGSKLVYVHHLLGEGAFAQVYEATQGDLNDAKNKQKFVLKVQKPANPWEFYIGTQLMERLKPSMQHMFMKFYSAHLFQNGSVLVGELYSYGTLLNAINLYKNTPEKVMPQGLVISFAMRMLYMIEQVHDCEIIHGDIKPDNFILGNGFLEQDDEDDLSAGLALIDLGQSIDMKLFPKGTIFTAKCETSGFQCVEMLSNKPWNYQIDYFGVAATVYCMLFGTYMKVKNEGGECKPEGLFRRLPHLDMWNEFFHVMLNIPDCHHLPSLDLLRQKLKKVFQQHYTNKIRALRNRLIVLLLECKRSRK
Chain of UniProt Q5VT25 (whole entry, looked up): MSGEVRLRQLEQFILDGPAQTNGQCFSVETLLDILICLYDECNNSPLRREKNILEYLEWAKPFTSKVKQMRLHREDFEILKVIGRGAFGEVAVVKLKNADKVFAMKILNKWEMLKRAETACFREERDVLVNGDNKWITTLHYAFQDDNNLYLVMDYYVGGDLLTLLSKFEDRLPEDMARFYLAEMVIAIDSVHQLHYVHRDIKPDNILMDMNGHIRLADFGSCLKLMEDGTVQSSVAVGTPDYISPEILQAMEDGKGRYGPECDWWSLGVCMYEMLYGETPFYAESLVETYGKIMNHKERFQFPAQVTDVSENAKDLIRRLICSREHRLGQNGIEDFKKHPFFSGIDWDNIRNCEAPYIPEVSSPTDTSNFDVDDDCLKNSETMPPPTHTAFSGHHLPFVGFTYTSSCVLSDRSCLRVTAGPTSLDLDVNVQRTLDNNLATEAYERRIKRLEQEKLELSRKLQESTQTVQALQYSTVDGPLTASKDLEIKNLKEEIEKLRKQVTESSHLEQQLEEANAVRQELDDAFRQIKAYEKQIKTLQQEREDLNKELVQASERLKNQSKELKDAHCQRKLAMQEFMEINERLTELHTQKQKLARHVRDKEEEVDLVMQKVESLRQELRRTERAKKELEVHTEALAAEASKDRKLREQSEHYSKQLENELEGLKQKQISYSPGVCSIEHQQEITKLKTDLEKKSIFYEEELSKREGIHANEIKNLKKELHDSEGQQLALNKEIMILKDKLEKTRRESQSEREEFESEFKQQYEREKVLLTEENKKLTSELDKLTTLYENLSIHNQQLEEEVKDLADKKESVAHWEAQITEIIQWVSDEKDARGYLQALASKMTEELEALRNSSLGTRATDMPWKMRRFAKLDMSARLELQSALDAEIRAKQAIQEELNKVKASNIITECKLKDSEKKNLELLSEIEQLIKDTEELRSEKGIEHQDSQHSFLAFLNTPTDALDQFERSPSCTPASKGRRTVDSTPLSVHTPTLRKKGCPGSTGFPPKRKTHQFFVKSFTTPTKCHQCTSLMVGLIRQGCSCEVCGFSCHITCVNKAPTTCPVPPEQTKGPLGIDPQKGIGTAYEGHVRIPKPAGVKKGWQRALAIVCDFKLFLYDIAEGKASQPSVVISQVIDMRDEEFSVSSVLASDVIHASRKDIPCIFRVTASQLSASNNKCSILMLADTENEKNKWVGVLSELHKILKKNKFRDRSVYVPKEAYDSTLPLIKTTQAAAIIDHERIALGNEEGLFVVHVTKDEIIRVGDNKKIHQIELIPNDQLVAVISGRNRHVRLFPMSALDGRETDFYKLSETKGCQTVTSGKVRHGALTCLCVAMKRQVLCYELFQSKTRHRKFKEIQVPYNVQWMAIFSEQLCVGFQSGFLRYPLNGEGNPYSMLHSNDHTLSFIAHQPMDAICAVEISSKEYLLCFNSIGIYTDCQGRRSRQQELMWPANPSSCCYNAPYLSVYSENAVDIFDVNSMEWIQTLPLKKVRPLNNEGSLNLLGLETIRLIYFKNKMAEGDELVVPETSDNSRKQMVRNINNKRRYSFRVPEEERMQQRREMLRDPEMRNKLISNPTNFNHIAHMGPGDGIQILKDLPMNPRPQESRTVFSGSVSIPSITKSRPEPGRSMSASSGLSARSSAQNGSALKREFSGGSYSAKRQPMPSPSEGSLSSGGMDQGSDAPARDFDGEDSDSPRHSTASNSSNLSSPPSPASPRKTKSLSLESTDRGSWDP
Chain of UniProt O94768 (whole entry, looked up): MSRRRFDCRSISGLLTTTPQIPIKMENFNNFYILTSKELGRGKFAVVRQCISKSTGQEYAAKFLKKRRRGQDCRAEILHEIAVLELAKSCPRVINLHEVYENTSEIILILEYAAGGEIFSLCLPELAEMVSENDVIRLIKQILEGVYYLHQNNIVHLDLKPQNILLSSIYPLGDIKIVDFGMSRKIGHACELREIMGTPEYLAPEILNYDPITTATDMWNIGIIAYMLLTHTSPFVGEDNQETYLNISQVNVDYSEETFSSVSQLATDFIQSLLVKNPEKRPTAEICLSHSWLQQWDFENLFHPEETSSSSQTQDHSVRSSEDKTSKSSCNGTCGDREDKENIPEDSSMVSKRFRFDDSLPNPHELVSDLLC

Block 1
SMILES: NS(=O)(=O)c1cc(NC(=O)C2(c3ccccc3Cl)CC2)ccc1Oc1cccc(Cl)c1
Method: competition with immobilised ligand
Tested at: 1 µM
Measurement: remaining binding
EPHA2 (Homo sapiens, UniProt P29317); cell-free assay: 80%
BUB1 (Homo sapiens, UniProt O43683); cell-free assay: 95%
FES (Homo sapiens, UniProt P07332); cell-free assay: 64%
STK17B (Homo sapiens, UniProt O94768); cell-free assay: 97%
MAP3K5 (Homo sapiens, UniProt Q99683); cell-free assay: 88%
FLT4 (Homo sapiens, UniProt P35916); cell-free assay: 67%
RET (Homo sapiens, UniProt P07949, V804M); cell-free assay: 100%
LIM domain kinase 1 (LIMK1, Homo sapiens, UniProt P53667); cell-free assay: 100%
PRPF4B (Homo sapiens, UniProt Q13523); cell-free assay: 68%
CDKL3 (Homo sapiens, UniProt Q8IVW4); binding: 77%
PIM1 (Homo sapiens, UniProt P11309); cell-free assay: 94%
CDC42BPA (Homo sapiens, UniProt Q5VT25); cell-free assay: 95%
MERTK (Homo sapiens, UniProt Q12866); cell-free assay: 70%

Block 2
Target: Interferon regulatory factor 5, full length, phosphomimetic (IRF5, Homo sapiens, UniProt Q13568-2, residues 1-514, K96S/S451D/S453D/S456D/S462D)
Method: protein-binding microarray
Form: double-stranded DNA, one strand shown
Matrix: in vitro
Tested at: 250 nM
Setting: 60-bp whole probe
With: salmon DNA 0.4 mg/ml
Baseline: random background probes
Reading: higher = stronger binding
Measurement: log fluorescence
Constant ends, left off below: GCCTAGCAC … GTCTTGATTCGCTTGACGCTGCTG
GACGGTATCGGTTTCGGGACGTGCTAG: 8.28 z-score
TTAGTACTGCTTCTCCTTTAGTGCTAG: 0.194 z-score
GACGGTTTCCTTATCCCGACGTGCTAG: 1.04 z-score
GACGATTTCAGTTGCGAGACGTGCTAG: 1.31 z-score
GAGAAAATGATTTTTTTCATGTGCTAG: 0.972 z-score
TCAGTTTCTCCTTTGTAACTGTGCTAG: 3.8 z-score
TTTGGTGTCTTTTGTGGAAACGTGCTA: 0.529 z-score
CCTCACATGACTGAATGGACGTGCTAG: -0.111 z-score

Block 3
Target: Casein kinase I isoform alpha (CSNK1A1, Homo sapiens, UniProt P48729)
Chain of UniProt P48729 (whole entry, looked up): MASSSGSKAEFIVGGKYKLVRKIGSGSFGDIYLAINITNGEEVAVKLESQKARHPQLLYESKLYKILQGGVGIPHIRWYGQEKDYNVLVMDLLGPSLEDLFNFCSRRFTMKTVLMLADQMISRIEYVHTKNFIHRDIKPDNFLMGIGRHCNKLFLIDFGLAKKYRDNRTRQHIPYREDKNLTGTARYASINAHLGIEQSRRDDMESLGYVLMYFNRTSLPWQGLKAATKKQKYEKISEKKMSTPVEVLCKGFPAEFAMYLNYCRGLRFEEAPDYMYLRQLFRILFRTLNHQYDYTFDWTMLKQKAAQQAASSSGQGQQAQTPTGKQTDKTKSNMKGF
Effect on: enzyme activity
Mode: inhibitor
Tested at: 0.5 µM
Baseline: control
Measurement: remaining activity
C#Cc1cccc(Nc2ncnc3cc(OCCOC)c(OCCOC)cc23)c1: 98.6%
COc1ccc(CNC(=O)Nc2ncc([N+](=O)[O-])s2)cc1: 92.4%
Cc1ccc(NC(=O)c2ccc(CN3CCN(C)CC3)cc2)cc1Nc1nc(-c2cccnc2)cs1: 98.5%
O=C(O)c1ccc2c3c1cccc3c(=O)n1c3ccccc3nc21: 97.6%
CO[C@H]1C[C@@H]2CC[C@@H](C)[C@@](O)(O2)C(=O)C(=O)N2CCCC[C@H]2C(=O)O[C@H]([C@H](C)C[C@@H]2CC[C@@H](O)[C@H](OC)C2)CC(=O)[C@H](C)/C=C(\C)[C@@H](O)[C@@H](OC)C(=O)[C@H](C)C[C@H](C)/C=C/C=C/C=C/1C: 99.3%
O=C(CCCc1ccc(-c2ccccc2F)cc1)Nc1ccc(O)cc1: 101%
Cn1c2ccccc2c2c3c(c4c5ccccc5n(CCC#N)c4c21)CNC3=O: 75.4%
CN(C)c1ccc(C=C2C(=O)Nc3ccccc32)cc1: 105%
Nc1ncnc2n[nH]c(Nc3ccc(F)cc3)c12: 90.3%
Cn1sc(=O)n(Cc2ccccc2)c1=O: 99.5%
CNC(=O)c1cc(Oc2ccc(NC(=O)Nc3ccc(Cl)c(C(F)(F)F)c3)cc2)ccn1: 97.8%
COc1ccc(C(=O)Nc2sc3c(c2C(N)=O)CCCC3)cc1OC: 108%
Cc1ccc(Nc2nccc(N(C)c3ccc4c(C)n(C)nc4c3)n2)cc1S(N)(=O)=O: 100%

Block 4
Target: Centromere-binding protein 1, full length, N-terminal tag (CBF1, Saccharomyces cerevisiae, UniProt P17106, residues 1-351)
Chain of UniProt P17106 (whole entry, looked up): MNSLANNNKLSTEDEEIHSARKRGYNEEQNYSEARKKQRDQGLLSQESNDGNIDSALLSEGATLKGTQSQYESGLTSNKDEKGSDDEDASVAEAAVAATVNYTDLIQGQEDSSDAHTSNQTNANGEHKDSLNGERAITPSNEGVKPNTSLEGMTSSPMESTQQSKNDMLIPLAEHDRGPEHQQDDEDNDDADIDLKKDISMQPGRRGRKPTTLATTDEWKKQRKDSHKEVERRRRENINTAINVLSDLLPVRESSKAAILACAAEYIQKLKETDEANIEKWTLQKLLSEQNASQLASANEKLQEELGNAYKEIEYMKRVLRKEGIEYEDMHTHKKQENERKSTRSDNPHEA
Method: protein-binding microarray
Form: double-stranded DNA, one strand shown
Matrix: in vitro
Tested at: 0.8 µM
Setting: whole 60-bp probe, no competitor
Reading: higher = stronger binding
Measurement: fluorescence intensity
Constant ends, left off below: … GTCTTGATTCGCTTGACGCTGCTG
CTACGATAGTATGCCCCCGTGATCTTAGTTATTTTC: 2420 a.u.
GAATCTCCCACTTTATTCGTGATTTAGTGTAGATAG: 537 a.u.
TGTACGAAGCTATTTCGCATGCATATAGTAGTTAGG: 554 a.u.
GAAAGATGTGGCAGTGACACCAATTGCAAGAGATAG: 622 a.u.
CTAATTAAAGATGAACAGGTGAGACAATATCAATTC: 603 a.u.
GAATATCTTTTTATGCACATGTAATTCTTCCCATAG: 650 a.u.
CTACCAGATATTTACCACGCTAGATTTGCATAGTTC: 509 a.u.
CTATTGCCAGCCCGTCATCAGTAGGACCCTTTTTTC: 539 a.u.

A few entries again (block 2):
GAGAAAATGATTTTTTTCATGTGCTAG: 0.972 z-score
TCAGTTTCTCCTTTGTAACTGTGCTAG: 3.8 z-score
TTTGGTGTCTTTTGTGGAAACGTGCTA: 0.529 z-score
CCTCACATGACTGAATGGACGTGCTAG: -0.111 z-score
